Experimental data pooled from the literature.
Each numbered part is a random draw from the data of one study; scales do not carry over between parts.

Series 1 — method: protein binding microarray; form: double-stranded DNA, one strand shown; matrix: in vitro; concentration: not given; reference: not given; direction: higher = stronger binding; endpoint: E-score
Target: Histone acetyltransferase KAT6A, winged helix 1, GST fusion (KAT6A, Homo sapiens, UniProt Q92794, residues 1-85)
Setting: 8-mer, flanks averaged, mean of 2 arrays, mostly near background
Residues (chain): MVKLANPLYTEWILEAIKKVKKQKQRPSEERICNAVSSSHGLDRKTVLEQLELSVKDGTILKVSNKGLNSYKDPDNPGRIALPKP
Oligonucleotide = ACTATGGC; value = -0.0494
Oligonucleotide = CAAACAAG; value = -0.103
Oligonucleotide = ACATTTGA; value = -0.0631
Oligonucleotide = AGTACTAC; value = -0.135
Oligonucleotide = CCTTTGCG; value = 0.155
Oligonucleotide = TACTAGAA; value = 0.00874
Oligonucleotide = AGTCTTCA; value = -0.154
Oligonucleotide = CCCTGCGG; value = 0.122
Oligonucleotide = AGCGAAGA; value = -0.0605
Oligonucleotide = GACCGTAC; value = 0.215
Oligonucleotide = GGCAATAC; value = 0.209
Oligonucleotide = TCTCTAAA; value = -0.0334
Oligonucleotide = CCCCCTGC; value = 0.0362
Oligonucleotide = CGTAGATC; value = 0.03
Oligonucleotide = ACGTGGCC; value = -0.085
Oligonucleotide = AGACGGGG; value = 0.202

Series 2 — method: protein-binding microarray; form: double-stranded DNA, one strand shown; matrix: in vitro; concentration: 250 nM; setting: 60-bp whole probe; added: salmon DNA 0.4 mg/ml; reference: random background probes; direction: higher = stronger binding; endpoint: log fluorescence; shared flanks, not repeated: GCCTAGCAC … GTCTTGATTCGCTTGACGCTGCTG
Target: Interferon regulatory factor 7, full length, phosphomimetic (IRF7, Homo sapiens, UniProt Q92985, residues 1-503, S101K/S471D/S472D/S475D/S476D/S477D/S483D/S484D/S487D)
Chain of UniProt Q92985 (whole entry, unmodified, looked up): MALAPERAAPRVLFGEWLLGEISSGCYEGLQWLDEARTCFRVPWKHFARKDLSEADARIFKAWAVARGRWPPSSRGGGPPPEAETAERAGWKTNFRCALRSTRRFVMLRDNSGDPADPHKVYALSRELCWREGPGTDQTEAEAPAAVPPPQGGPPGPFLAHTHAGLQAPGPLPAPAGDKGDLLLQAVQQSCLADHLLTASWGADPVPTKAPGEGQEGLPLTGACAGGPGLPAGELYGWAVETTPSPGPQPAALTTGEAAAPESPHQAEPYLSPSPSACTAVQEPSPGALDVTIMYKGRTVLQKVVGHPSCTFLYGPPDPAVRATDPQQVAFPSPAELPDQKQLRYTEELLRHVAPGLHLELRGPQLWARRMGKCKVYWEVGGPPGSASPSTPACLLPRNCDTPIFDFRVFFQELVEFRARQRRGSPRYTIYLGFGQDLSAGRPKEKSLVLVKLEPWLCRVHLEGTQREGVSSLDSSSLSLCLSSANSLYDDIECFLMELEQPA
Oligonucleotide = TTAGGTATCGGTCTCAGTTAGTGCTAG; value = 1.1 z-score
Oligonucleotide = CTAGGACTGCTTTTCCTTTAGTGCTAG; value = 1.72 z-score
Oligonucleotide = TCAACTTTCTATCTCTGACTGTGCTAG; value = 1.01 z-score
Oligonucleotide = GACGGACTGCTTATCGTGACGTGCTAG; value = -0.25 z-score
Oligonucleotide = GTCGGTCTCCTTTTCCTGACGTGCTAG; value = 2.32 z-score
Oligonucleotide = GAAAGCCTGCTGCCAGTCTGGTGCTAG; value = -0.805 z-score
Oligonucleotide = TTAAAACTGAGTTTCGATTAGTGCTAG; value = 8.49 z-score
Oligonucleotide = TTAGTTTTCAGTCTCGATTAGTGCTAG; value = 3.78 z-score
Oligonucleotide = GACGATTCCAGTTCCGAGACGTGCTAG; value = 0.829 z-score
Oligonucleotide = TTAGGTTTCGGGTATCGCTTAGTGCTA; value = 7.45 z-score
Oligonucleotide = TCAGTCACCCATCTCAGACTGTGCTAG; value = -0.253 z-score
Oligonucleotide = TTAGGTTTCGATTTTCGGTTAGTGCTA; value = 14.1 z-score
Oligonucleotide = CTCTTCTTGCATCTGGGTATGTGCTAG; value = 1.47 z-score
Oligonucleotide = GACGCTTTCGGGACTGGAGACGTGCTA; value = 0.546 z-score
Oligonucleotide = GACGGACTGCTACTGCAGACGTGCTAG; value = -1.04 z-score
Oligonucleotide = GACGATCTCAGTATCGAGGCGTGCTAG; value = -0.123 z-score
Oligonucleotide = TTAGGTTTCGGTCTCGGTTCGTGCTAG; value = 9.65 z-score

Series 3 — method: RNA Bind-n-Seq; form: RNA; matrix: in vitro; concentration: not given; reference: input RNA pool; direction: higher = stronger binding; endpoint: bound/input enrichment
Target: RING finger protein unkempt homolog, zinc fingers 1-6, GST-SBP tag (UNK, Homo sapiens, UniProt Q9C0B0, residues 30-357)
Setting: RNA with constant flanks, human and mouse sites, ends assumed
Shared flanks, not repeated: GGGAGUUCUACAGUCCGACGAUC … CAACAGAGGAUUGAGCAUCA
Construct (chain): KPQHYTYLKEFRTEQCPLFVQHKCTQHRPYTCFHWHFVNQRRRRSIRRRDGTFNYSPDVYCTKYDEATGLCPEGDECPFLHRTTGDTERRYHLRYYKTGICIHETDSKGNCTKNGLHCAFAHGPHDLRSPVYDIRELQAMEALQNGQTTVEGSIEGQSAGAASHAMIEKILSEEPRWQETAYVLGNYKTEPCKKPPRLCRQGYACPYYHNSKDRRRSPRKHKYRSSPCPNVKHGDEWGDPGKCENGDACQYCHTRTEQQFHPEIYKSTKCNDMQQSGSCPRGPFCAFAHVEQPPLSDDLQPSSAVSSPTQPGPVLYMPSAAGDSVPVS
Oligonucleotide = AGACUGAAUGCUACUUACUAUAUUACCAAGCAAAUCCUUCCACCCUUGGCAAGAAUCUUCUCACUUAUUGGUAUUGAUGUCUUCAGCUGGUAUCAUGAAUUACCAAGGAUCCAUAAAGCU; value = 0.252 ratio
Oligonucleotide = CAGCCUAUUGCUGUGGCCUCCCUGUCUACAAACACAGAGCAAGACCGAGUCUCUCGAGGAACAAGUACAGUCAUGCCAUCAGCUUCUCUACUCCCACCACCAGAACCAAUUGAGGAAGCU; value = 0.456 ratio
Oligonucleotide = AAAGAAACAGAAGAAGGAGAAGACAAUUUGCUCUGUAACCUUCGGGAAGUUCAGUGCCUUAUCUGUUGCCUGUUACACCAAAUGUACAUUGCAGAUCCCAACAUUGCUAAACUUGUUCAC; value = 0.0902 ratio
Oligonucleotide = GCUGAAAAUGAAGAAGAGGCAGCUGAUGUCUGGUACAACCUGGGGCACAUAGCUGUGGGAAUCGGAGAUACAAACUUGGCCCACCAAUGCUUCAGGCUGGCCCUGGUCCACAACAACCAC; value = 0.13 ratio
Oligonucleotide = GACACAAACUACAAUGCAAACCUUUUUCCUGGUACCUAGAGAAUAUAUAUCCUGAUUCUCAAAUUCCACGUCACUAUUUCUCAUUGGGAGAGAUACGAAAUGUGGAAACGAAUCAGUGUC; value = 1.36 ratio
Oligonucleotide = AUUGUGGAUAAAGUAUCCAGUGUAGCCAGCUCAGCGCUGGUCUCUUCCUUACACAUGAUGAAGAUAAGCUAUGAUGUGGUUAAACGAUGGAUAAAUGAAGCCCAAGAAGCUGCAUCAAGU; value = 0.127 ratio
Oligonucleotide = UAAUAUUUUUGUGAACUGGUGUAAAUUGUUAAUGCAUAUAAGCUUGUGUAUUUUUGUAAAUAGUUUUGUGAUUUACUUCUUGCCCCCUGUGUAAAUAUUUACAGUCUCAUUUCUUCCAAA; value = 0.521 ratio
Oligonucleotide = CAGCUUCGGCAGGACAUUGUUGCUGGACGUCUGCCCUGUUCCUUUGCAACUUUAGCCCUACUCGGGUCUUACACGAUCCAGUCUGAGCUGGGAGACUAUGACCCAGAACUGCACGGCAUG; value = 0.149 ratio
Oligonucleotide = GGGCUGCUUUACGCUCUGAGGGUCCCGCUGAGGCUGUGUGACAACGUGACAGCGGUGACAGGGUUUUUAAGUUCACUGACACCCAAGUUCUAUGUGGCACUUACAGGGACAUCUUCUUUG; value = 0.0788 ratio
Oligonucleotide = AAGACAUACGGGGAGCCUGAGUCUGUGGGCAUGUCCAAGAGCUUCCGCCAGCCGGGGACCUCACUUGUAGAUGCUGAUACCUUCCAUCACCAGGUGCGUGAUGACAUUUUCUCUUCUUUA; value = 0.138 ratio
Oligonucleotide = CAGGGUGGGACCCGGGACCCGCGGCUCAGUGGCCCGCUAGCCACGUCAGCCAAGCCACUUUAGGUCCAUUUUUUAAUUUUAACAGUGCUCUUCCAUCUUGUGCAUAAGCCUGAGAUUUGG; value = 120 ratio

Series 4 — method: RNA Bind-n-Seq; form: RNA; matrix: in vitro; concentration: 1 µM; setting: whole 134-nt RNA, ends assumed; added: 150 mM KCl; reference: input library; direction: higher = stronger binding; endpoint: log2 enrichment
Target: Ras GTPase-activating protein-binding protein 1, C-terminal RGG region (G3BP1, Homo sapiens, UniProt Q13283)
Chain of UniProt Q13283 (whole entry, looked up): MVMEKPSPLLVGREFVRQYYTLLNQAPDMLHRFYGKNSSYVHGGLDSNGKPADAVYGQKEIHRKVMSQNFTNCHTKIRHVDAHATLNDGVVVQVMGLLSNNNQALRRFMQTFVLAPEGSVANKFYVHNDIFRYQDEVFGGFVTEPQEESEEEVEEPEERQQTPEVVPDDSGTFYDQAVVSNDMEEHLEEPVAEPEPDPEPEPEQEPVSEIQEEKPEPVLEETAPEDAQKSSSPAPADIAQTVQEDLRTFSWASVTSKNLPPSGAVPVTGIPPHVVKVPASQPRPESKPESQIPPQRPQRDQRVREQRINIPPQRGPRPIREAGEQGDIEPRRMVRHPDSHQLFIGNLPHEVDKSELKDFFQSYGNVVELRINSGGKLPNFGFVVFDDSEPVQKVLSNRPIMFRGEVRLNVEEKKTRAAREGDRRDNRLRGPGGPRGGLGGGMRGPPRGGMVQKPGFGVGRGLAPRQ
Shared flanks, not repeated: GGGAGUUCUACAGUCCGACGAUC … UGGAAUUCUCGGGUGUCAAGG
Oligonucleotide = UAACUUUAGAGCAGGAUCUGAUGGAUAUGGCAGUGGACGUGGAUUUGGGGAUGGCUAUAAUGGGUAUGGAGGAGGACCUGGAGGUGGCAA; value = -0.908
Oligonucleotide = CCUCAAGUCCUGUGCUACACAUCGUAUGUACCGAAUCGGGGAGGGAGGAGGGAAAGUAUUAUGUUACGCCGUUCGGAUCUGCACUUCCAG; value = 0.5
Oligonucleotide = GCAGGAAGUAAAAACAAAUGGAAAUGCUUCGGAUAGUGGCAGGGGUGGGGGUUGCUAAGGAAAGGGUGGGAUGGGAGUGGGUAAACAGUU; value = 0.117
Oligonucleotide = CUCAAGUCCUGUGCUACACAUCGUAUGUACCGAAUCGGUGGUUUGGAAAAAGGAAAGUAUUAUGUUACGCCGUUCGGAUCUGCACUUCCA; value = -1.11
Oligonucleotide = UCAAGUCCUGUGCUACACAUCGUAUGUACCGAAUCGGGUUUGGGUUUGGGUGGGAAAGUAUUAUGUUACGCCGUUCGGAUCUGCACUUCC; value = 1.9
Oligonucleotide = CAAGUCCUGUGCUACACAUCGUAUGUACCGAAUCGGUUUGGAAAGGUUUUUUUGGAAAGUAUUAUGUUACGCCGUUCGGAUCUGCACUUC; value = -1.66
Oligonucleotide = GCAGGAAGUAAAAACAAAUGGAAAUGCUUCGGAUAGUGGCAGGGGUGGGGGUUGCUAAGGAAAGGGUGGGUUGGGAGUGGGUAAAGAGUU; value = 1.99
Oligonucleotide = UCAAGUCCUGUGCUACACAUCGUAUGUACCGAAUCGGGGUUGGGGUUGGUUGGGAAAGUAUUAUGUUACGCCGUUCGGAUCUGCACUUCC; value = 0.0469
Oligonucleotide = AGUCCUGUGCUACACAUCGUAUGUACCGAAUCGGGGCCCCGGGCCCCGGGCCCCGGGGAAAGUAUUAUGUUACGCCGUUCGGAUCUGCAC; value = -2.13
Oligonucleotide = GCAGGAAGUAAAAAAAAAUGGAAAUGCUUCGGAUAGUGGCAGGGGUGGGGGUUGCUAAGGAAAGGGUGGGAUGGGAGUGGGUAAAGAGUU; value = 1.91
